Measurements of several laboratories.
Each numbered part is a random draw from the data of one study; scales do not carry over between parts.

Set 1
Structure (SMILES): CC(C)n1cnc(-c2ccc(F)cc2)c1-c1ncc(C(=O)Nc2ccc(N3CCN(C)CC3)cc2)[nH]1
| test | test system | setting | patients with adverse event [%] |
| --- | --- | --- | --- |
| Phase 2a trial, refers to: hyperlipidaemia | human, idiopathic pulmonary fibrosis | 60 mg once daily, grade 5 | 0 |
| refers to: liver injury | patients with idiopathic pulmonary fibrosis | 30 mg twice daily, trial, together with: standard of care therapy | 25 |
| Phase 2a trial, refers to: hepatic steatosis | human, idiopathic pulmonary fibrosis | 60 mg once daily, grade 5 | 0 |
| Phase 2a trial, refers to: blood urea increased | human, idiopathic pulmonary fibrosis | 30 mg once daily, grade 4 | 0 |
| Phase 2a trial, refers to: hepatic steatosis | human, idiopathic pulmonary fibrosis | 60 mg once daily, grade 2 | 0 |

Set 2
Target: Rho-associated protein kinase 2 (ROCK2, Homo sapiens, UniProt O75116)
UniProt O75116, sequence (whole entry, looked up): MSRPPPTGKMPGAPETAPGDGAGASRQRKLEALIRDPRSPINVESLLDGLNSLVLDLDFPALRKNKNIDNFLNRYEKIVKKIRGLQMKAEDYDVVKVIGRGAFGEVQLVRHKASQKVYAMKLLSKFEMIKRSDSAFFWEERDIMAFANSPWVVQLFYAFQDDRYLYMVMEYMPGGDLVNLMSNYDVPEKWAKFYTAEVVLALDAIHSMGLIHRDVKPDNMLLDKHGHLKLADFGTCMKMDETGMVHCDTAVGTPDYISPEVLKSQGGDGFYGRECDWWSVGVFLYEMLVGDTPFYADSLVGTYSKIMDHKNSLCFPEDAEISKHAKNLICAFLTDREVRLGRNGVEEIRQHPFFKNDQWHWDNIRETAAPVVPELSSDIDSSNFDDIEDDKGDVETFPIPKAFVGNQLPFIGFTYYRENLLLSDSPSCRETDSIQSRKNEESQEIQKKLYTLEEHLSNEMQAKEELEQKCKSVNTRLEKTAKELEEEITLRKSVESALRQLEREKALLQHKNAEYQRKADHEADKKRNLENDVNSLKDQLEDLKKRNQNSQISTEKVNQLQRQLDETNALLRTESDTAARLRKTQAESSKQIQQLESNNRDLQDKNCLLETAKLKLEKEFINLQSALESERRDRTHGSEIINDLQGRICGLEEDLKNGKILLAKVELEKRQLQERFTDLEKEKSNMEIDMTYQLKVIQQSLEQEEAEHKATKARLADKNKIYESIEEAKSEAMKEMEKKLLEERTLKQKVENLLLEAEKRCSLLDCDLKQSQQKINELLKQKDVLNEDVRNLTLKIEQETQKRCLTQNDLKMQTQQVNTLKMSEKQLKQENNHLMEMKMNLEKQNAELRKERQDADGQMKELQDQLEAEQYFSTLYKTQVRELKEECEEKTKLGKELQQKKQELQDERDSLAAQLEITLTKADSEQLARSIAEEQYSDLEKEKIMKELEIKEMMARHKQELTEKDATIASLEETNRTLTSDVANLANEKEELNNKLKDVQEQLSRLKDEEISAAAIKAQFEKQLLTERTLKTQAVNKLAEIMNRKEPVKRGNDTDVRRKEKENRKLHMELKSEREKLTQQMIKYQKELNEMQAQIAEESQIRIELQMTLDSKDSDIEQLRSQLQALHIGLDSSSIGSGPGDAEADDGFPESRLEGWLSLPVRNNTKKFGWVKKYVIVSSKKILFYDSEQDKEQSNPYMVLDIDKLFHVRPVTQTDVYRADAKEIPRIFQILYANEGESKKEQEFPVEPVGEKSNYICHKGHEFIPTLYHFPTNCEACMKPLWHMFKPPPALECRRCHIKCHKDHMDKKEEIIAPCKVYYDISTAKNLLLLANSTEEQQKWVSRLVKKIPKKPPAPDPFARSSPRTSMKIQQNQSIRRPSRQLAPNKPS
Effect on: enzyme activity
Mode: inhibitor
Tested at: 0.5 µM
Relative to: control
| SMILES | remaining activity |
| --- | --- |
| N#C/C(=C(/N)SC1C=CC=CC1)c1cccc(C(O)c2ccncc2)c1 (stereo not drawn) | 80.6% |
| CCN(CC)CCCCN1c2ccccc2Oc2ccc(Cl)cc21 | 104% |
| c1cc(-c2cnn3cc(-c4ccc(OCCN5CCCCC5)cc4)cnc23)ccn1 | 100% |
| CC(C)(C)c1nc2c3cc[nH]c(=O)c3c3cc(F)ccc3c2[nH]1 | 70.7% |
| CCCCc1c(-c2ccc(O)cc2)[nH]c2nccnc12 | 97.5% |
| N#CC(c1ccnc(NCCc2cccnc2)n1)c1nc2ccccc2s1 (stereo not drawn) | 83.6% |
| O=C1Nc2ccc(Br)cc2/C1=C/c1cc2c([nH]1)CCCC2 | 92.8% |
| Cc1ccc(S(=O)(=O)/C=C/C#N)cc1 | 99.1% |
| N#Cc1cnc2cnc(NCc3cccnc3)cc2c1Nc1ccc(F)c(Cl)c1 | 97.1% |
| COc1ccc2c(c1)c(C1=C(c3c[nH]c4ccccc34)C(=O)NC1=O)cn2CCCN(C)C | 89.2% |
| FC(F)(F)c1ccc(/C=C/c2nc(COc3ccc(CCCCn4ccnn4)cc3)co2)cc1 | 99.7% |
| CCCNC(=O)Nc1ccc(Oc2ncnc3cc(OC)c(OC)cc23)cc1Cl | 97.7% |
| O=C1c2ccccc2-c2nc3nnnn3nc21 | 81.7% |
| CN(C)S(=O)(=O)c1ccc2c(c1)/C(=C/c1cc3c([nH]1)CCCC3)C(=O)N2 | 88.2% |
| COc1cc2c(Nc3ccc(Br)cc3F)ncnc2cc1OCC1CCN(C)CC1 | 90.7% |

Set 3
Cell line: mouse MPNST tumor cells
Method: high-content nuclear imaging
Refers to: cell number
Tested at: 10 µM
Time: 12 h
Setting: mean of 2 replicates
Relative to: plate mean
Reading: higher = more cells
| SMILES | nuclei count |
| --- | --- |
| Cc1ccc(C(=O)C(C)CN2CCCCC2)cc1 (stereo not drawn) | 0.618 z-score |
| O=C(Nc1ccccc1)c1cc([N+](=O)[O-])ccc1Cl | -0.534 z-score |
| Cc1ccc(-c2ccc(F)cc2COc2ccc(CCC(=O)O)cc2)cc1 | 2.23 z-score |
| COc1ccc(Nc2nccc(NCCO)n2)cc1 | 0.327 z-score |
| CC[C@H](NC(=O)c1c(C)c(-c2ccccc2)nc2ccccc12)c1ccccc1 | 0.332 z-score |
| COC(=O)C1=C(C)NC(C)=C(C(=O)OCCCN2CCC(c3ccccc3)(c3ccccc3)CC2)[C@H]1c1cccc([N+](=O)[O-])c1 | -5.23 z-score |

Set 4
Target: 5-hydroxytryptamine receptor 1B (HTR1B, Homo sapiens, UniProt P28222)
UniProt P28222, sequence (whole entry, looked up): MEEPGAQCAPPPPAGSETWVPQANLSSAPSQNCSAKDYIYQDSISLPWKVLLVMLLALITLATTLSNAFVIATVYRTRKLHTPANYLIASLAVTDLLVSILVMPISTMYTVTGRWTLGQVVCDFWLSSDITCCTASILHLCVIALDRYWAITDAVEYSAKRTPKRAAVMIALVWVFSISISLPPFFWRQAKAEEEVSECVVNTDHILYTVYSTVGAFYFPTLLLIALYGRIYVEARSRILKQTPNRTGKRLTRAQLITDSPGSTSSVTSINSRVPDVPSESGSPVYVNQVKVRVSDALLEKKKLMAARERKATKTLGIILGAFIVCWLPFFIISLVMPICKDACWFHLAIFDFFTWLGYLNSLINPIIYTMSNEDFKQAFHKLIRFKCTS
Effect on: ligand displacement
Method: radioligand
Tested at: 10 µM
| Structure (SMILES) | inhibition |
| --- | --- |
| O=C(NC[C@@H]1[C@H]2CN(C(=O)OCc3cc(C(F)(F)F)cc(C(F)(F)F)c3)C[C@@H]12)c1ccc2[nH]nnc2c1 | 17.9% |
| CC(=O)Nc1c(C(C)=O)c(=O)n(C)c2nc(-c3ccc(Cl)cc3Cl)c(-c3ccc(Cl)cc3)cc12 | 43.6% |
| CN1CCN(C(=O)C(C)(C)c2ccc(C(=O)Nc3cn4cc(-c5ccncc5)ccc4n3)cc2)CC1 | 7.83% |
| Cc1nccc(COC(=O)N2C[C@@H]3[C@@H](CNC(=O)c4ccc5[nH]nnc5c4)[C@@H]3C2)n1 | 4.4% |

Excerpt of the above (set 2):
| SMILES | remaining activity |
| --- | --- |
| COc1ccc2c(c1)c(C1=C(c3c[nH]c4ccccc34)C(=O)NC1=O)cn2CCCN(C)C | 89.2% |
| FC(F)(F)c1ccc(/C=C/c2nc(COc3ccc(CCCCn4ccnn4)cc3)co2)cc1 | 99.7% |
| CCCNC(=O)Nc1ccc(Oc2ncnc3cc(OC)c(OC)cc23)cc1Cl | 97.7% |
| O=C1c2ccccc2-c2nc3nnnn3nc21 | 81.7% |
| CN(C)S(=O)(=O)c1ccc2c(c1)/C(=C/c1cc3c([nH]1)CCCC3)C(=O)N2 | 88.2% |
